Published values of several laboratories.
Each line is one published result; not all experiments were run side by side. ± marks the error that the study gave.

For `Nc1ncnc2c([C@@H]3O[C@H](CO)[C@@H](O)[C@H]3O)snc12`, the pKa was 3.29 (fluorescence emission vs pH).
`N#Cc1ccc(C[C@H](NC(=O)[C@@H](N)CO)C(=O)NCC(N)=O)cc1` gave a pKa of 8.59 (N-terminal amino group, fluorescence pH titration; water; 20 µM, 25 °C, two-state fit).
For `O=c1cc(-c2ccc(O)c(-c3c(O)cc(O)c4c(=O)cc(-c5ccc(O)cc5)oc34)c2)oc2cc(O)cc(O)c12`, the pKa was 8.71 (UV-vis pH titration; ethanol-water, 0.1 M NaCl; 25 µM, 25 °C, fourth pKa, phenol deprotonation).
The pKa of `CCOC(=O)CNc1ccc2ccccc2c1` is reported as roughly 4.7 (spectrophotometric titration, refers to: secondary amine; aqueous NaCl with buffer; 10 µM).
`N#Cc1ccc(C[C@H](NC(=O)[C@@H](N)CCCCN)C(=O)NCC(N)=O)cc1` has a pKa of 7.25 (N-terminal amino group, fluorescence pH titration; water; 20 µM, 25 °C, two-state fit).
`CN1CCN2c3ncccc3Cc3ccccc3C2C1` (centres unmarked) has a pKa of 4.21.
`NC(Cc1cc(=O)oc2cc(O)ccc12)C(=O)O` (centres unmarked) has a pKa of 7.8 (pH-dependent fluorescence).
`O=C(O)COP(=O)(O)O` has a pKa of 6.3.
`N#Cc1ccc(C[C@H](N)C(=O)NCC(=O)NCC(N)=O)cc1` gave a pKa of 6.97 (N-terminal amino group, fluorescence pH titration; water; 20 µM, 25 °C, two-state fit).
`O=c1[nH]c2ccccc2n1CCCN1CCC(n2c(=O)[nH]c3cc(Cl)ccc32)CC1` has a pKa of 7.48.
`O=c1[nH]cnc2c([C@@H]3O[C@H](CO)[C@@H](O)[C@H]3O)snc12` gave a pKa of 9.26 (UV-vis absorption titration).
`CC1=CC(c2ccccc2)=NS(=O)(=O)N1` gave a pKa of 2.52 ± 0.17 (polymer-water distribution, UV; 25 °C).
`Nc1nc2c([C@@H]3O[C@H](CO)[C@@H](O)[C@H]3O)snc2c(=O)[nH]1` has a pKa of 9.88 (fluorescence emission vs pH).
With `N#Cc1ccc(C[C@H](NC(=O)CN)C(=O)NCC(N)=O)cc1` the pKa was 7.99 (N-terminal amino group, fluorescence pH titration; water; 20 µM, 25 °C, two-state fit).
The pKa of `COc1c(N2CCNC(C)C2)c(F)cc2c(=O)c(C(=O)O)cn(C3CC3)c12` (centres unmarked) is reported as 9.21 (pH titration; 25 °C, aliphatic secondary amine).
`CNS(=O)(=O)Cc1ccc2[nH]cc(CCN(C)C)c2c1` has a pKa of 8.93.
The pKa of `N#Cc1ccc(C[C@H](NC(=O)[C@@H]2CCCN2)C(=O)NCC(N)=O)cc1` is reported as 7.28 (N-terminal amino group, fluorescence pH titration; water; 20 µM, 25 °C, two-state fit).

Excerpt of the above:
`N#Cc1ccc(C[C@H](N)C(=O)NCC(=O)NCC(N)=O)cc1` gave a pKa of 6.97 (N-terminal amino group, fluorescence pH titration; water; 20 µM, 25 °C, two-state fit).
